# Results from different studies.
# Numbered parts are unrelated; each lists some results of a single study. Changes are numbered by the printed parent chain.

# Block 1
# Target: UBE2C UBC core domain (UniProt O00762)
# Method: yeast two-hybrid
# Sample: yeast
# Setting: mostly zero background
# Baseline: not given
# Reading: higher = stronger interaction
# B1: MKRN3 RING domain (UniProt Q13064); chain FAVQRGMDKVCGICMEVVYEKANPNDRRFGILSNCNHSFCIRCIRRWRSARQFENRIVKSCPQCRVTSELVIPSE
# B2: HLTF RING domain (UniProt Q14527); chain LILSSGSDEECAICLDSLTVPVITHCAHVFCKPCICQVIQNEQPHAKCPLCRNDIHEDNLLE
# B3: ZNRF4 RING domain (UniProt Q8WWF5); chain VRTFTWHNDLCAICLDEYEEGDQLKILPCSHTYHCKCIDPWFSQAPRRSCPVCKQSVAATEDSF
# B4: VPS8 RING domain (UniProt Q8N3P4); chain TRGLNPKQDYCSICLQQYKRRQEMADEIIVFSCGHLYHSFCLQNKECTVEFEGQTRWTCYKCSSSNKVGKLSE
# B5: BFAR RING domain (UniProt Q9NZS9); chain GPQISVSEFSCHCCYDILVNPTTLNCGHSFCRHCLALWWASSKKTECPECREKWEGFPKVS
# B6: CNOT4 RING domain (UniProt O95628); chain MSRSPDAKEDPVECPLCMEPLEIDDINFFPCTCGYQICRFCWHRIRTDENGLCPACRKPYPED
# B7: RNF182 RING domain (UniProt Q8N6D2); chain AESQASDELECKICYNRYNLKQRKPKVLECCHRVCAKCLYKIIDFGDSPQGVIVCPFCRFETCLPDDEV
# B8: TRIM11 RING domain (UniProt Q96F44); chain LSTNLQEEATCAICLDYFTDPVMTDCGHNFCRECIRRCWGQPEGPYACPECRELSPQRNLRP
# B9: ZMYND11 RING domain (UniProt Q15326); chain DEIDWETENHDWYCFECHLPGEVLICDLCFRVYHSKCLSDEFRLRDSSSPWQCPVCRSIKKKNTNKQEM
# B10: RNF6 RING domain (UniProt Q9Y252); chain NSIDSELGKICSVCISDYVTGNKLRQLPCMHEFHIHCIDRWLSENCTCPICRQPVLGSNIAN
# B11: MID2 RING domain (UniProt Q9UJV3); chain KMETLESELTCPICLELFEDPLLLPCAHSLCFSCAHRILVSSCSSGESIEPITAFQCPTCRYVISLNHRGL
# B12: RNF186 RING domain (UniProt Q9NXI6); chain HSGSTECDLECLVCREPYSCPRLPKLLACQHAFCAICLKLLLCVQDNTWSITCPLCRKVTAVPGGLI
# Residues (chain): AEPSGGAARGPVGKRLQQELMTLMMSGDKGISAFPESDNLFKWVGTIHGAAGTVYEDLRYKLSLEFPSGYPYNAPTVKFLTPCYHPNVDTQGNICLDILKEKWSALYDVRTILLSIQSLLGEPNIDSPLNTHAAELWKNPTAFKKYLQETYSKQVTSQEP
Molecule,lacZ reporter activity
B1 (MKRN3 RING domain),0
B2 (HLTF RING domain),0
LEALSSDFLACKICLEQLRAPKTLPCLHTYCQDCLAQLADGGRVRCPECRETVPVPPEGV (TRIM56 RING domain (UniProt Q9BRZ2)),0
B3 (ZNRF4 RING domain),0
B4 (VPS8 RING domain),0
B5 (BFAR RING domain),0
B6 (CNOT4 RING domain),0
B7 (RNF182 RING domain),0
B8 (TRIM11 RING domain),0
B9 (ZMYND11 RING domain),0
B10 (RNF6 RING domain),0
B11 (MID2 RING domain),0
B12 (RNF186 RING domain),0
LVKDFNPYITCYICKGYLIKPTTVTECLHTFCKTCIVQHFEDSNDCPRCGNQVHETNPLE (PCGF5 RING domain (UniProt Q86SE9)),0
ASPKIFQKTKCSICNSALELPSVHFLCGHSFHQHCFESYSESDADCPTCLPENRKVMDMI (VPS11 RING domain (UniProt Q9H270)),0
FAEQPSVKLCCQLCCSVFKDPVITTCGHTFCRRCALKSEKCPVDNVKLTVVVNNI (TRAF7 RING domain (UniProt Q6Q0C0)),0

# Block 2
# Target: FOSB, bZIP domain (human)
# Method: DHFR protein complementation
# Sample: yeast
# Setting: single substitutions, most at no-binding floor
# Baseline: wild-type JUN-FOS pair
# Reading: higher = stronger binding
# Starting sequence: JUN, bZIP domain (human); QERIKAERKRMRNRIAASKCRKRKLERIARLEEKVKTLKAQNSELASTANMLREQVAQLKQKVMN; partner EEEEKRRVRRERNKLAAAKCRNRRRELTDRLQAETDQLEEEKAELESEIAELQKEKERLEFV
Change,binding fitness [natural log]
E32S,-0.0995
V35R,-0.195
K39N,-0.553
K39E,-0.578
A57N,-0.134
K39Q,-0.394
A29F,-0.224
L31K,-0.646
Q55I,-0.0564
M51I,-0.108
E32H,-0.253
E32R,0.00466
Q55A,0.00273
E54P,-1.16
E44N,-0.29
K36A,0.061
K39M,-0.573
R30L,0.0184
M51W,-0.132
I28D,-0.346
E32C,0.101
S47R,0.027
A49M,-0.397
A46Q,-0.0462
R53I,-1

# Block 3
# Target: RNA binding protein fox-1 homolog 2, RRM domain, GST-SBP tag (RBFOX2, Homo sapiens, UniProt O43251-10, residues 100-194)
# Method: RNA Bind-n-Seq
# Form: RNA
# Sample: in vitro
# Tested at: 365 nM
# Setting: natural RNA segment, single round, ends assumed
# Baseline: no-protein control
# Reading: higher = stronger binding
# Construct (chain): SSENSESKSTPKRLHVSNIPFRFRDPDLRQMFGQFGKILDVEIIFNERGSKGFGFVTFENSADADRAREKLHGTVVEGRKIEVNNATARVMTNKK
Oligonucleotide,RBNS enrichment (R)
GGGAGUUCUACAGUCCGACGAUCGAUAUUGACAUUUUAUUAAUAUUUUUUAAAUUGUUACGUUUAUAAAUUUGGUACUUAAGGCACAGCCAGUGUGAGGCACUGAACGCGACAUUUAUUACAAUGAGCUGCUGUGGAAUUCUCGGGUGCCAA,0.575
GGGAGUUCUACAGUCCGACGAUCAGGCCCUUUUGCAAGGCUUAGGGUGUGGCCAGCCCUGAAAGCUACUUGGACACAGGUUUCAGCUGGCCCCAGCCCAGAAGUGACCCCCAGAAAGGGAGGGCCACCGCUUUUGGAAUUCUCGGGUGCCAA,0.773
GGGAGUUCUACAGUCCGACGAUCUUUGUAGGUCUCUAAUAAAGAACUUUAUGUGGUCCUUCUACCUCUUGCUGUGAAGAACAGAGCCCACCCCAUAGCCUAAAUCUGUCCCUUCUAUUCCUUGUCCCCUCCCUUGGAAUUCUCGGGUGCCAA,0.766
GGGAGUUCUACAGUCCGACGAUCCGGCCCCUUCUUUUGUCUUCCUGGCAGGAAAGCAAGACAGUGAGCCAUGCCCUAAAACACUCACACCUGUAAACCCAGUCCUUAGGAGACUGAGGCAGGAGGAUCCCUGUUGGAAUUCUCGGGUGCCAA,0.259
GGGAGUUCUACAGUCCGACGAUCCUAGCCAGAGACCUAUGCAUCCCGAAUGGCCACUAAGGCAGUCCUGAAGGGCCCUCCAGGGUGAUGACUCCAGUGUGUCAGCCCCACUGAGCAGCUAUGCAGGUUGACUGUGGAAUUCUCGGGUGCCAA,0.383
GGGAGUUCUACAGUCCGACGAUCCAAAAUAAAUUUCUGAAUUAUGCAUCAUAAAGCUUUGAAAUUUCUUUUUUAAUUGAUGGGAUACUAACCUUAAAUUCUAGCGUUGGUGCUUUGCACCAAGAGAAAGCUUUUGGAAUUCUCGGGUGCCAA,1.35
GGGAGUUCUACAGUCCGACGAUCCCUCCUUCUCCUUCUCACACACAACUGUCCAUACUAACAAGUUUGGUGCAUGUCUGUUCUUCUGUAGGGAGAAGCUUUAGCUUCAUUUUACUAAAAAGAUUCCUCGUUAUUGGAAUUCUCGGGUGCCAA,0.247
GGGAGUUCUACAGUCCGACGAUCACAAUAUGACAGUAGUACAACAACCUGUGCCCAAAACACUGACAAGAAAUACAGAGUAAAGCUAAAAUAAUUGUUUACCAAUAUUUUGAGAGGUAACAAAUAGGGAGAUAUGGAAUUCUCGGGUGCCAA,0.296
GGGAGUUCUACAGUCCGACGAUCAUCAACUAUCCCUCGUCGUGAUUGUUGAAAGCUCUUUCACUGUUUUGCAUUCUAGUUUGAAUAGUUUGUAUUGAAAUUGGAUUCCUAUCUUGUGUAUGUUUUUGGUGCGUUGGAAUUCUCGGGUGCCAA,7.16
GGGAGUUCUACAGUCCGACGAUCACUCCAGUCCUGCCACCACCCUGUCUUCCUCUGCAAGUGCUCAGGGAAAUGGCCUUCCCGCCGGAGGCCAGCUAUCUGCCUGACAGGCUGUGACUCUUCUCUCAACCUUGUGGAAUUCUCGGGUGCCAA,0.318
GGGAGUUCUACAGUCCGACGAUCACGAACCAGAGACAAAAUUACUAAGUAUAAAUUAGUCAAGUUUAUCAGUCUAAAAAACGAAGGGAUGUGCAACUGCAGCUCUUUAAGAAGUUUUUUUUUUUUAGCUUCUAUGGAAUUCUCGGGUGCCAA,0.644
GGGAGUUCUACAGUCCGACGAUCGUGAUAACACAAAUUUUAUCGCAAUGGUUAUUAUUUAAUUUGUGGCCACACACUGUGGUUAUCUUUUGUUGUGGUUGUUUCUGAGAAAAUGUUCUUGGAUAUGUAAGUGCUGGAAUUCUCGGGUGCCAA,0.648

# Block 4
# Target: CCNB2, cyclin fold, Cln2 fusion (human)
# Method: yeast growth competition, sequencing
# Sample: yeast
# Setting: weak parent motif
# Baseline: not given
# Reading: higher = stronger binding
# Starting sequence: TICRR docking peptide (human); TKVRRNLFNQELL
Change,normalised enrichment score
TKVRKNLLNQELL [R5K F8L],0.578
TKVRRNLFNAELL [Q10A],0.414
TKVRRNAFNQELL [L7A],0.595
TKVRRNLFAQELL [N9A],1.34
TKVRRNLANQELL [F8A],-0.358
TKVRRALFNQELL [N6A],0.52
TAVRRNLFNQELL [K2A],1.47

# Block 5
# Target: ABI1, truncated, D143A, DHFR fusion (Arabidopsis thaliana)
# Method: DHFR PCA, deep sequencing
# Sample: yeast
# Setting: methotrexate growth selection, single substitutions
# Together with: (+)-ABA 0.0091 µM
# Baseline: wild-type fitted maximum
# Reading: higher = stronger binding
# Starting sequence: PYL1, truncated, DHFR fusion (Arabidopsis thaliana); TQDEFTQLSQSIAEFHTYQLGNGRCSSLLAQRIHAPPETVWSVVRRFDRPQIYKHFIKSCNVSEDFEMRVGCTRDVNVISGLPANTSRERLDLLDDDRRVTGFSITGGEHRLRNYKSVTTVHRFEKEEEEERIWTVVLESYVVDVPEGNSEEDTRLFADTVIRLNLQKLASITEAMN; partner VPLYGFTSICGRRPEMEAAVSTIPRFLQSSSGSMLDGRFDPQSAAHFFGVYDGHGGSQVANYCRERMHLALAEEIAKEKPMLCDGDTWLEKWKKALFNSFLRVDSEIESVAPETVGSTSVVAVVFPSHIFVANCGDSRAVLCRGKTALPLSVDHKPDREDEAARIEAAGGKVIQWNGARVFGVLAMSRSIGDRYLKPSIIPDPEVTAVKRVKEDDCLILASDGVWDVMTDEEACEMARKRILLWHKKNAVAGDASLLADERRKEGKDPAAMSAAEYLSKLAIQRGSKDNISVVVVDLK
Change,relative binding score [%]
N165T,1.42
S140I,-0.31
H16W,-2.64
R49D,3.44
V137G,2.04
S171Y,20.9
I79Y,24.8
I12E,-0.814
H55W,43
T173C,65.5
E174K,5.29
R99V,-6.49
A30P,1.35
V70P,31.8
R98W,-5.78
M176D,8.65
V121A,10.6
D65Q,16.9
T154A,3.58
D96G,-3.27
G81Y,8.01
V161W,70
